{"data": "Published values collected from several papers", "target": "5-hydroxytryptamine receptor 3A (HTR3A, Homo sapiens, UniProt P46098)", "note": "Lines come from different studies, so protocols differ.", "sequence of UniProt P46098 (whole entry, looked up)": "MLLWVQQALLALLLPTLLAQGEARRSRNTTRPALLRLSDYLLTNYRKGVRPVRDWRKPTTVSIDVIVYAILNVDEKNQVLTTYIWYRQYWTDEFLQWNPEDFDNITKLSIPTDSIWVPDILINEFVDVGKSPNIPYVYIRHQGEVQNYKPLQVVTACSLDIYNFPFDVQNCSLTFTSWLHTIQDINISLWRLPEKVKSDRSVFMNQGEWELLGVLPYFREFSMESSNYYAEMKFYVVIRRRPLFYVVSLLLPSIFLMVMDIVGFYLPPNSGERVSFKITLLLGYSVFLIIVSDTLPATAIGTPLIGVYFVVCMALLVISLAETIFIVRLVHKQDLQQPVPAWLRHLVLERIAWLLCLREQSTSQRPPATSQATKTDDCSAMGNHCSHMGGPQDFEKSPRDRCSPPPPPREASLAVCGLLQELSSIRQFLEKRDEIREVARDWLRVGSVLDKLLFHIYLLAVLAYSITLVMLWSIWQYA"}
{"SMILES": "CN1[C@@H]2CC[C@H]1C[C@@H](OC(=O)c1c[nH]c3ccccc13)C2", "assay": "radioligand binding", "system": "human", "conditions": "10 µM", "inhibition": "100%"}
{"SMILES": "OCCCN1CC[C@@H]2C[C@H]1c1cc(-c3ccc(C(F)(F)F)cc3)ccc12", "assay": "radioligand binding, PDSP competition binding", "conditions": "10 µM", "inhibition": "< 50%"}
{"SMILES": "O=C(CN1CCO[C@H](COc2cccnc2)C1)N1CCc2ccccc21", "assay": "radioligand binding", "conditions": "concentration not given, added: [3H]GR65630", "inhibition": "2.6%"}
{"SMILES": "CN1CCC(CNc2ccc3ncc(-c4cccc(OC(F)(F)F)c4)n3n2)CC1", "assay": "ion channel activity, blocker", "conditions": "10 µM", "how to read": "relative to: control", "inhibition": "> 50%"}
{"SMILES": "CN(C(=O)n1cnc(-c2ccc[n+]([O-])c2)c1)C1CCCCC1", "assay": "receptor binding", "conditions": "10 µM, subtype 5HT3", "inhibition": "-1.51%"}
{"SMILES": "O=C1c2ccccc2CCN1CCCCN1CCN(c2cccc(Cl)c2Cl)CC1", "assay": "radioligand binding", "conditions": "concentration not given, added: [3H]GR65630", "inhibition": "99.5%"}
{"SMILES": "O=C(NO)c1ccc(CN2CCCCc3ccccc32)c(F)c1", "assay": "radioligand binding, radioligand displacement", "conditions": "10 µM, mean of replicates", "inhibition": "13.2%"}
{"SMILES": "Cc1ncccc1OC[C@H]1CN(CCN2CCc3ccccc32)CCO1", "assay": "radioligand binding", "conditions": "concentration not given, added: [3H]GR65630", "inhibition": "-12.7%"}
{"SMILES": "CCS(=O)(=O)c1nc(S(=O)(=O)c2ccccc2Cl)c(N2CCN(C)C(=O)[C@H]2C)s1", "conditions": "10 µM", "inhibition": "7.15%"}
